Experimental data of several laboratories.
Lines come from different studies, so protocols differ. “And” joins repeats or separate records; there may be more than shown.
Cell line: SK-OV-3
Observed: cell growth or viability

The IC50 of `C=CC[P](c1ccccc1)(c1ccccc1)[Pt]([S]c1ccc(C(F)(F)F)cn1)([S]c1ccc(C(F)(F)F)cn1)[P](CC=C)(c1ccccc1)c1ccccc1` is reported as 12.4 µM and 17.5 µM (MTT).
`O=C(Cc1ccc2ccccc2c1)N[C@H](Cc1ccc(OP(=O)(O)O)cc1)C(=O)N[C@H](Cc1ccccc1)C(=O)N[C@H](Cc1ccccc1)C(=O)N[C@H](Cc1ccc(OP(=O)(O)O)cc1)C(=O)O` has an IC50 of greater than 483 µg/mL (MTT).
For `C[C@H]1C(OCCCCCC[P+](c2ccccc2)(c2ccccc2)c2ccccc2)O[C@@H]2O[C@@]3(C)CCC4[C@H](C)CCC1[C@]42OO3` (some centres unmarked), the IC50 was 0.105 µM (MTT; 72 h).
`C=CC[P](c1ccccc1)(c1ccccc1)[Pt]([S]c1nc2ccccc2s1)([S]c1nc2ccccc2s1)[P](CC=C)(c1ccccc1)c1ccccc1` has an IC50 of 22.1 µM (MTT).
For `C[C@H]1C(OCCCCCCCCC[P+](c2ccccc2)(c2ccccc2)c2ccccc2)O[C@@H]2O[C@@]3(C)CCC4[C@H](C)CCC1[C@]42OO3` (some centres unmarked), the IC50 was 0.103 µM (MTT; 72 h).
`O=C(Cc1ccc2ccccc2c1)N[C@H](Cc1ccc(O)cc1)C(=O)N[C@H](Cc1ccccc1)C(=O)N[C@H](Cc1ccccc1)C(=O)N[C@H](Cc1ccc(OP(=O)(O)O)cc1)C(=O)O` gave an IC50 of 372 µg/mL (MTT).
With `C[C@H]1C(OCCCCC[P+](c2ccccc2)(c2ccccc2)c2ccccc2)O[C@@H]2O[C@@]3(C)CCC4[C@H](C)CCC1[C@]42OO3` (some centres unmarked) the IC50 was 0.095 µM (MTT; 72 h).
The IC50 of `N.N.O=C([O][Pt]([Cl])([Cl])[O]C(=O)c1ccc(P(c2ccccc2)c2ccccc2)cc1)c1ccc(P(c2ccccc2)c2ccccc2)cc1.[Cl][Au].[Cl][Au]` is reported as 7.9 µM (resazurin; 72 h).
For `COC(=O)CC[C@@H](NC(=O)[C@@H](Cc1ccc(OP(=O)(O)O)cc1)NC(=O)[C@@H](Cc1ccccc1)NC(=O)[C@@H](Cc1ccccc1)NC(=O)Cc1ccc2ccccc2c1)C(=O)OC`, the IC50 was greater than 200 µM.
`O=C1[O][Pt]2([OH])([OH])([NH]C3CCCCC3[NH]2)[O]C1=O` (centres unmarked) gave an IC50 of greater than 100 µM (resazurin; 72 h).
`O=C(Cc1ccc2ccccc2c1)N[C@H](Cc1ccc(O)cc1)C(=O)N[C@H](Cc1ccccc1)C(=O)N[C@H](Cc1ccccc1)C(=O)N[C@H](Cc1ccc(O)cc1)C(=O)O` has an IC50 of greater than 500 µg/mL (MTT).
The IC50 of `C[C@@H]1CCC2[C@@H](C)[C@@H](OCCC[P+](c3ccccc3)(c3ccccc3)c3ccccc3)O[C@@H]3O[C@@]4(C)CCC1[C@@]23OO4` (some centres unmarked) is reported as 0.15 µM (MTT; 72 h).
With `O=C(Cc1ccc2ccccc2c1)N[C@H](Cc1ccccc1)C(=O)N[C@H](Cc1ccc(O)cc1)C(=O)N[C@H](Cc1ccccc1)C(=O)N[C@H](Cc1ccc(O)cc1)C(=O)O` the IC50 was greater than 500 µg/mL (MTT).
`C=CC[P](c1ccccc1)(c1ccccc1)[Pt]([S]c1ncccn1)([S]c1ncccn1)[P](CC=C)(c1ccccc1)c1ccccc1` gave an IC50 of 12.4 µM (MTT).
